{"data": "Measured values from different studies", "note": "Numbered parts are unrelated; each lists some results of a single study."}
{"data": "Series 1", "target": "Interferon regulatory factor 7, full length, phosphomimetic (IRF7, Homo sapiens, UniProt Q92985, residues 1-503, S471D/S472D/S475D/S476D/S477D/S483D/S484D/S487D)", "method": "protein-binding microarray", "form": "double-stranded DNA, one strand shown", "matrix": "in vitro", "concentration": "2200 nM top", "notes": "60-bp whole probe", "together with": "salmon DNA 0.4 mg/ml", "relative to": "random background probes", "direction": "higher = stronger binding", "all sequences stand within": "GCCTAGCAC … GTCTTGATTCGCTTGACGCTGCTG", "Residues (chain)": "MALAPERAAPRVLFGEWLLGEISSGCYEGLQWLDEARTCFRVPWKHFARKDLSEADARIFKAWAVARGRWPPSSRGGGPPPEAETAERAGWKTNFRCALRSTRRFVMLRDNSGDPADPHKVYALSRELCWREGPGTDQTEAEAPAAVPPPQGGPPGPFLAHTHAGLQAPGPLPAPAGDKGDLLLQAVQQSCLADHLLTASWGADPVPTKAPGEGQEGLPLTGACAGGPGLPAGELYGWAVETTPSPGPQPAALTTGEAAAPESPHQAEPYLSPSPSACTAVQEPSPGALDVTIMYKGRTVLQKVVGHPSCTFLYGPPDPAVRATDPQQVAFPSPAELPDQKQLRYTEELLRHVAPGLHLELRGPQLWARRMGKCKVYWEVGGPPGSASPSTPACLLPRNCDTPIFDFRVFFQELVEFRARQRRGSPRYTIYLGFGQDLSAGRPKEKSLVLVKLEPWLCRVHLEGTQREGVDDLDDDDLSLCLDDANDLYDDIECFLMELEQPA"}
{"Strand": "CTAGGTCTCCTACTGCTTTAGTGCTAG", "fitted relative affinity [z-score]": 0.596}
{"Strand": "GTGTGTGTCTGATTATTTACGTGCTAG", "fitted relative affinity [z-score]": 1.24}
{"Strand": "GACGATTTCGGGTATCGTGACGTGCTA", "fitted relative affinity [z-score]": 2.86}
{"Strand": "GCCGAACTGAGTATCGAGACGTGCTAG", "fitted relative affinity [z-score]": -0.0165}
{"Strand": "TCACCTTGCATGTTTTTGACTGTGCTA", "fitted relative affinity [z-score]": 1.58}
{"Strand": "TCATTCATGAAATTTTAAACTGTGCTA", "fitted relative affinity [z-score]": -0.145}
{"Strand": "GACGGACTGGGGTTTCGGCACGTGCTA", "fitted relative affinity [z-score]": -0.389}
{"Strand": "ACTTCCCTCGGGTTGCGGAGCGTGCTA", "fitted relative affinity [z-score]": 1.81}
{"Strand": "TCATGTCTGGGCTTTTTCACTGTGCTA", "fitted relative affinity [z-score]": 0.46}
{"Strand": "TCATTAATCACATATACAACTGTGCTA", "fitted relative affinity [z-score]": 0.287}
{"Strand": "TTAGGTCTCCTTTTCCGTTAGTGCTAG", "fitted relative affinity [z-score]": 2.06}
{"Strand": "GACGGCTTCCTTTCCCTGACGTGCTAG", "fitted relative affinity [z-score]": 1.46}
{"Strand": "GACGGTTTCGTTATCGGGACGTGCTAG", "fitted relative affinity [z-score]": 6.76}
{"Strand": "GACGGTATGGACACTGGGGACGTGCTA", "fitted relative affinity [z-score]": -0.567}
{"Strand": "TCATTTTTTTTTTTACTACTGTGCTAG", "fitted relative affinity [z-score]": 2.07}
{"Strand": "GTCAGCGGTGGTGTTCGGTGGTGCTAG", "fitted relative affinity [z-score]": -0.753}
{"Strand": "CTAGGACTGCTTCTCCTTTAGTGCTAG", "fitted relative affinity [z-score]": 0.703}
{"Strand": "GACGGTCCCCTACTGCTGACGTGCTAG", "fitted relative affinity [z-score]": 0.155}
{"Strand": "GACCGTTCCGGTTTCGGGACGTGCTAG", "fitted relative affinity [z-score]": 4.75}
{"data": "Series 2", "target": "RNA binding protein fox-1 homolog 2, RRM domain, GST-SBP tag (RBFOX2, Homo sapiens, UniProt O43251-10, residues 100-194)", "method": "RNA Bind-n-Seq", "form": "RNA", "matrix": "in vitro", "concentration": "365 nM", "notes": "natural RNA segment, single round, ends assumed", "relative to": "no-protein control", "direction": "higher = stronger binding", "all sequences stand within": "GGGAGUUCUACAGUCCGACGAUC … UGGAAUUCUCGGGUGCCAA", "Residues (chain)": "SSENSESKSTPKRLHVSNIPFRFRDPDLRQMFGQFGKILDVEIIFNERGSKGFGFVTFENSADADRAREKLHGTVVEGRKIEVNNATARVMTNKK"}
{"Strand": "UUCCCUUGACUGGAUCCCAAGUAGCUUGGAAGUUUUUGUGCCCAGGAGAGUAAAUAACUGUGAACAAGAGGCUCUGCCCUUAGGUCUUUGUGGCUGUUUAAGUCACCAAC", "RBNS enrichment (R)": 0.36}
{"Strand": "CGAUGGCCCCGCUGUGGUCCCCUCUCUGUCCCUCCAUCUGUAUGUGUUCUGUGUCCCUUGCAUGUGUGCGUGUUAGAGUGAGCGCGUAUGCAUCAACUCAUUGGGCUCUU", "RBNS enrichment (R)": 1.3}
{"Strand": "AGCCUGGCUCUCAGAAGCCACGUUAGCGUCUCUCUCUCCUGCUGAUCGCUCGACACAGCACCUUUUCUAAAGAAAAAAAAAUCUUUUUUCCAGUUAACUUUGCAUCUUCA", "RBNS enrichment (R)": 1.97}
{"Strand": "UUCCAAAAGCCUUCAAGAUGGCAGCAGAUGGACACACCCUCUCAUUUCUUGUGUCUUGUCUGUCAGAUGGCAGGAGGCCUGUAUCAGUAAAUUUGAGGAAAAUGUUCUCU", "RBNS enrichment (R)": 0.38}
{"Strand": "UACAUAAAAUGAUUUUAGUUCAGUUUUAACCAGUGAAAACUUUGUUUUUAUGAAAAAAAAGGAAAAUGGUUUCCCAUUUGGUUUUAUAUGUGUUAAAUAAAUGUGUAAAG", "RBNS enrichment (R)": 0.842}
{"Strand": "UCUGCACCCCCAGCAAGAAGGCGAGUUAGUUUUCUAGAGACUUGAAGGAGUCUCCCCCUUCCUGCAUCACCACCUUGGUUUUGUUUUAUUUUGCUUCUUGGUCAAGAAAG", "RBNS enrichment (R)": 0.498}
{"Strand": "CUGCUGGAGGCAGGGCACCUGCUGCGACCCAGAUUCUUCUGCAGGAUGUGUCUGUCUUUGUCACGGUGGACAGAGGGUGACAUCAUAGGAGCAGCUCGCUGGCCAGAAGG", "RBNS enrichment (R)": 0.42}
{"Strand": "UUAUUUUUAUACUUUGAUUUUCACUAGUUUUGCUUUUAUGUAAAAGUCAAAAUAAACUUUUCAUCCUAAAGGAAAUCUUGUUGGAUCUCUUUUAGCCAAGGGAAUCAGCU", "RBNS enrichment (R)": 0.727}
{"data": "Series 3", "target": "Centromere-binding protein 1, full length, N-terminal tag (CBF1, Saccharomyces cerevisiae, UniProt P17106, residues 1-351)", "method": "protein-binding microarray", "form": "double-stranded DNA, one strand shown", "matrix": "in vitro", "concentration": "0.8 µM", "notes": "whole 60-bp probe, no competitor", "direction": "higher = stronger binding", "all sequences stand within": "… GTCTTGATTCGCTTGACGCTGCTG", "chain of UniProt P17106 (whole entry, looked up)": "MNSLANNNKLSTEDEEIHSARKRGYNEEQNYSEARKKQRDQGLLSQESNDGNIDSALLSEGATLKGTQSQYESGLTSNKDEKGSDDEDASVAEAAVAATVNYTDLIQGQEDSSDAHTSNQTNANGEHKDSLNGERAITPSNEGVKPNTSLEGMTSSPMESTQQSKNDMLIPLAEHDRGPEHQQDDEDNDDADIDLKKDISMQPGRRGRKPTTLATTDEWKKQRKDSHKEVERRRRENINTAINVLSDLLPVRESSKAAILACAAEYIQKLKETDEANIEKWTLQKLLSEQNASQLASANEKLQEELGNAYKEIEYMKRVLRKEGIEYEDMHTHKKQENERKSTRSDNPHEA"}
{"Strand": "CTAACTTATTTTCATCACGAATACGAGAAGGGCTTC", "fluorescence intensity": "568 a.u."}
{"Strand": "GAAGTAAATACTGAAAACGTGCTGGAGAATAGTTAG", "fluorescence intensity": "998 a.u."}
{"Strand": "GAAACCTAATAAAATCAGCAGACGCAAGAAGGATAG", "fluorescence intensity": "575 a.u."}
{"Strand": "CTAATGACCCACTCAGGTGTTAAAGTGTGTCATTTC", "fluorescence intensity": "556 a.u."}
{"Strand": "CTAGTGCAGCCGGCCCTCGTGCGCCTGCGCCGTTTC", "fluorescence intensity": "570 a.u."}
{"Strand": "GAATTCAGAACTTATCACGAACAACGATGTGGTTAG", "fluorescence intensity": "509 a.u."}
{"Strand": "CTAAGACCTGTCCGTGATGTCGAGGACACGATATTC", "fluorescence intensity": "546 a.u."}
{"Strand": "CCTAACTACTATAAACATCAGCGATAGCTTCGTACA", "fluorescence intensity": "517 a.u."}
{"Strand": "CTAGATCTCAGAAGGCATGTGAAAAAAAATTCGTTC", "fluorescence intensity": "732 a.u."}
{"Strand": "GAACACGTGGCTGCACACGTGAATGAAAAAGAATAG", "fluorescence intensity": "9340 a.u."}
{"Strand": "CTAGACAGAGTTTATCAGCTGTATAGAGTAATCTTC", "fluorescence intensity": "591 a.u."}
{"Strand": "GAATATGAAAAAGATCATGAGAAAATCGCAGAATAG", "fluorescence intensity": "590 a.u."}
{"Strand": "CTATATGATAATATACTGGTGGTGAATGACAGCTTC", "fluorescence intensity": "525 a.u."}
{"Strand": "GAACCAATTTTTTGTCACGCTTATTAGAATATTTAG", "fluorescence intensity": "1590 a.u."}
{"Strand": "CTACTTCTAATCAAACACGCGGAAATAGCCGCCTTC", "fluorescence intensity": "572 a.u."}
{"Strand": "CCTAACTACTATACACGTGTTATATAGCTTCGTACA", "fluorescence intensity": "6900 a.u."}
{"Strand": "CTACTAGTATATTATCACATGCAGTGTAAGAAGTTC", "fluorescence intensity": "1580 a.u."}
{"Strand": "CTAGATGTAATCCATCACCCCCCTATAAAAACATTC", "fluorescence intensity": "517 a.u."}
{"Strand": "CTATAATATAATGTGCACGTTCTAAAAATAATTTTC", "fluorescence intensity": "1160 a.u."}
{"data": "Series 4", "target": "Histone acetyltransferase KAT6A, both winged helices, GST fusion (KAT6A, Homo sapiens, UniProt Q92794, residues 1-181)", "method": "protein binding microarray", "form": "double-stranded DNA, one strand shown", "matrix": "in vitro", "concentration": "not given", "notes": "8-mer, flanks averaged, mean of 2 arrays, mostly near background", "relative to": "not given", "direction": "higher = stronger binding", "Construct (chain)": "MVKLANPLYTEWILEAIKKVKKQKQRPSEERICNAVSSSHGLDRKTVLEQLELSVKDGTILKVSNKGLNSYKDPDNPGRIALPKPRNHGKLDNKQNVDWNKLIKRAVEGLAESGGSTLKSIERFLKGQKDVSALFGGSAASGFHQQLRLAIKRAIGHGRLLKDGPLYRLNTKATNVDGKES"}
{"Strand": "GGCACGAA", "E-score": -0.119}
{"Strand": "CCTTTCTA", "E-score": 0.0518}
{"Strand": "AAAGCGTT", "E-score": 0.0765}
{"Strand": "ATGATAAC", "E-score": -0.116}
{"Strand": "AACTACTA", "E-score": -0.0757}
{"Strand": "CACGAGGA", "E-score": -0.169}
{"Strand": "AATACGAC", "E-score": -0.134}
{"Strand": "GAACGGTA", "E-score": 0.131}
{"Strand": "CCAACACG", "E-score": 0.0261}
{"Strand": "GATGGAAC", "E-score": -0.148}
{"Strand": "GCCCATCA", "E-score": -0.125}
{"Strand": "CGGAAAAC", "E-score": 0.18}
{"Strand": "CCCACTTC", "E-score": -0.139}
{"Strand": "GTTACCTA", "E-score": -0.234}
{"Strand": "CTTACGCC", "E-score": 0.0777}
{"Strand": "ATTGAAAA", "E-score": -0.0454}
{"Strand": "AGGGTGAA", "E-score": -0.216}
{"Strand": "AGGGTCAA", "E-score": -0.175}
{"Strand": "CCAAATAA", "E-score": -0.181}
{"Strand": "GTCATAAA", "E-score": -0.048}
{"Strand": "CGCTCTAC", "E-score": 0.147}
